Measurements gathered from unrelated publications.
Parts stem from different laboratories: compare values within a part only. Positions count from the first letter of the parent shown.
UniProt Q8WVN8, sequence (whole entry, looked up): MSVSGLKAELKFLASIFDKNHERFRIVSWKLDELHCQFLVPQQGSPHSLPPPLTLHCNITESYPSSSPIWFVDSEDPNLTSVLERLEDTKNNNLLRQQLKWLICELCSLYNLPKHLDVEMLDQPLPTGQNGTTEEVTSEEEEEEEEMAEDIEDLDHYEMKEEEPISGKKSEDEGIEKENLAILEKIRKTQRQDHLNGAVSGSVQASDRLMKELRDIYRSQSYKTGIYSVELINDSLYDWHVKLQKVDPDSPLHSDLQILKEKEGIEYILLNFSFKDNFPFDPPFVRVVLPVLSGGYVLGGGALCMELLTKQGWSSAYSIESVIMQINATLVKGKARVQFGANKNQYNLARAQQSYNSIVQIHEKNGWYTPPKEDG
UniProt Q96LR5, sequence (whole entry, looked up): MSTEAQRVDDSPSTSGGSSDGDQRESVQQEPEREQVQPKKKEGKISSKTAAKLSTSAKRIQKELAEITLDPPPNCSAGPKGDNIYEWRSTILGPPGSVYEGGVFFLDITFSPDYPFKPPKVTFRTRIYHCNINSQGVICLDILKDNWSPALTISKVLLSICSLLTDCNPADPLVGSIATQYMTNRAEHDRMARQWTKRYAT
UniProt P60604, sequence (whole entry, looked up): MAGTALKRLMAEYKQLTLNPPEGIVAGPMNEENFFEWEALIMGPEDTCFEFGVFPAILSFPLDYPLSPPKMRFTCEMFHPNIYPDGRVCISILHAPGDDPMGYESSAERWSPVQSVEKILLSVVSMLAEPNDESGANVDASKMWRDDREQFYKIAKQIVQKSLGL
UniProt Q13404, sequence (whole entry, looked up): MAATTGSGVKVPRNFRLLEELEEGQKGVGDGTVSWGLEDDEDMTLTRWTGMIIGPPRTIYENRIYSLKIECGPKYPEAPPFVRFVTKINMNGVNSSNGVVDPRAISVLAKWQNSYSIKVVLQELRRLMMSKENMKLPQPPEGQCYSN
UniProt P61088, sequence (whole entry, looked up): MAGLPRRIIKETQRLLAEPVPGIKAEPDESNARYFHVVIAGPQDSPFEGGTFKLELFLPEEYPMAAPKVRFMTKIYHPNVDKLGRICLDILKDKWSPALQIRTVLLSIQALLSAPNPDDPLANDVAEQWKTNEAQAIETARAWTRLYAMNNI
UniProt Q5VVX9, sequence (whole entry, looked up): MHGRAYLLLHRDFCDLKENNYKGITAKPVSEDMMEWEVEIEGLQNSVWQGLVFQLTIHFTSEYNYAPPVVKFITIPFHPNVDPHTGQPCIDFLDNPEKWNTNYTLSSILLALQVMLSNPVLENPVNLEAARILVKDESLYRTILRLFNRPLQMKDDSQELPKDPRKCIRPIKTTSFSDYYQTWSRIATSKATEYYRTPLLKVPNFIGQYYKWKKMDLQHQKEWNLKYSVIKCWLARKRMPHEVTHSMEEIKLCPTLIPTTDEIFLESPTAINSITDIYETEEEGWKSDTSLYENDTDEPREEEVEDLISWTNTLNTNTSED
UniProt P51965, sequence (whole entry, looked up): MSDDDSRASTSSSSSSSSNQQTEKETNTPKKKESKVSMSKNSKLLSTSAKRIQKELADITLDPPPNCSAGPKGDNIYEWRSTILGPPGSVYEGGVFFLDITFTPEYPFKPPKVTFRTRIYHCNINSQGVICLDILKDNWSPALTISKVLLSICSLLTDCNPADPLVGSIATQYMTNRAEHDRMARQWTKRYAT
UniProt O14933, sequence (whole entry, looked up): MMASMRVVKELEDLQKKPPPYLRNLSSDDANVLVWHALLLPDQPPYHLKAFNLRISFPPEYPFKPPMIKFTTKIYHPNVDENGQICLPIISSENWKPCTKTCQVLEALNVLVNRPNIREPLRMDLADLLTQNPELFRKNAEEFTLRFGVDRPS
UniProt P62256, sequence (whole entry, looked up): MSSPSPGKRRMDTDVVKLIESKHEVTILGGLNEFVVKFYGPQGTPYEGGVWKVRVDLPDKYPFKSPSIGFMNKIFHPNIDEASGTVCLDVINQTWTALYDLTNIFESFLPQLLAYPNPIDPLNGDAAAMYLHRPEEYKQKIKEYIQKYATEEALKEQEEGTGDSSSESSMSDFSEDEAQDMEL
UniProt P49427, sequence (whole entry, looked up): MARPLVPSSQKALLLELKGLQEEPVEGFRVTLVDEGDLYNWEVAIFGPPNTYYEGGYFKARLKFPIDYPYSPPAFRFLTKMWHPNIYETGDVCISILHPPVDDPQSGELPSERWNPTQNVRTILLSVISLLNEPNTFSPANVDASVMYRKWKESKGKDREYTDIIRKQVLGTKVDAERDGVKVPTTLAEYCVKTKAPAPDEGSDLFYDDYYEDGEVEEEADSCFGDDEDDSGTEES
UniProt Q15819, sequence (whole entry, looked up): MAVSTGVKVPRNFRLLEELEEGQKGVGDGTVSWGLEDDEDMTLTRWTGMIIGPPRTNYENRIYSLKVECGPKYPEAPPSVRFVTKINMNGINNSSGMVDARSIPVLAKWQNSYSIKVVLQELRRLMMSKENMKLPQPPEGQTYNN

Sample 1
Target: ATF2, bZIP domain (human)
Method: DHFR protein complementation
Sample: yeast
Notes: single substitutions, most at no-binding floor
Relative to: wild-type JUN-FOS pair
Direction: higher = stronger binding
Starting sequence: JUN, bZIP domain (human); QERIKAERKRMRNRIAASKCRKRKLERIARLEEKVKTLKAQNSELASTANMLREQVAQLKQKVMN; partner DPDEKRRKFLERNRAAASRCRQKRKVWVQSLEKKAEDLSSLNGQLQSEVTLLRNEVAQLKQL
| Change | binding fitness [natural log] |
| --- | --- |
| A40N | -1.38 |
| L31M | -1.54 |
| V35K | -1.49 |
| L38G | -1.49 |
| S43C | -1.45 |
| E44F | -1.48 |
| E32M | -1.38 |
| E44C | -1.47 |
| Q55T | -1.42 |
| A40W | -1.5 |
| I28W | -1.49 |
| R53H | -1.47 |
| R53M | -1.45 |
| E32N | -1.01 |
| Q41D | -1.49 |
| A49I | -1.18 |
| T37Q | -1.29 |
| A29L | -1.41 |
| A29P | -1.37 |
| Q41P | -1.44 |
| S47A | -1.3 |
| A46I | -1.41 |
| K36E | -1.39 |
| T48Q | -1.34 |
| A29R | -1.31 |

Sample 2
Target: CCNE2, cyclin fold, Cln2 fusion (human)
Method: yeast growth competition, sequencing
Sample: yeast
Notes: strong parent motif
Relative to: not given
Direction: higher = stronger binding
Starting sequence: RBL1 docking peptide (human); GSAKRRLFGEDPP; partner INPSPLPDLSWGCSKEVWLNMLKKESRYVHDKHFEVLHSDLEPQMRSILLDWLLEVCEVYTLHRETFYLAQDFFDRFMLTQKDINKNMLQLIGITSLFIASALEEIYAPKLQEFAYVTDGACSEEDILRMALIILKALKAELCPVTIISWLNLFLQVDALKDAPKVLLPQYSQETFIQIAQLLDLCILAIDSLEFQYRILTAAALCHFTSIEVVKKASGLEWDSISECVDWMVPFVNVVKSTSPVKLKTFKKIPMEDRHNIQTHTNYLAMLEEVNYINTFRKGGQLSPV
| Change | normalised enrichment score |
| --- | --- |
| G9S | 5.57 |
| A3W | 2.55 |
| A3C | 4.44 |
| K4F | 1.39 |
| G9M | 4.88 |
| G1P | 4.02 |
| P13V | 4.49 |
| R5W | -0.312 |
| G1C | 4.57 |
| G1A | 4.68 |
| A3D | -0.426 |
| G9L | 4.85 |
| L7D | -0.0599 |
| P12N | 3.69 |
| L7V | 0.555 |
| K4Y | 0.984 |
| G1E | 4.24 |
| E10M | 3.01 |

Sample 3
Molecule: B1 (NEURL1 RING domain)
Method: yeast two-hybrid
Sample: yeast
Notes: mostly zero background
Relative to: not given
Direction: higher = stronger interaction
B1: NEURL1 RING domain (UniProt O76050); chain VTPGLGQWSDECTICYEHAVDTVIYTCGHMCLCYACGLRLKKALHACCPICRRPIKDIIKT
| target | lacZ reporter activity |
| --- | --- |
| CDC34 UBC core domain (UniProt P49427) | 0 |
| UBE2V2 UBC core domain (UniProt Q15819) | 0 |
| UBE2V1 UBC core domain (UniProt Q13404) | 0 |
| UBE2Q2 UBC core domain (UniProt Q8WVN8) | 0 |
| UBE2L6 UBC core domain (UniProt O14933) | 0 |
| UBE2G2 UBC core domain (UniProt P60604) | 0 |
| UBE2U UBC core domain (UniProt Q5VVX9) | 12900 |
| UBE2E2 UBC core domain (UniProt Q96LR5) | 0 |
| UBE2N UBC core domain (UniProt P61088) | 7560 |
| UBE2H UBC core domain (UniProt P62256) | 2580 |
| UBE2E1 UBC core domain (UniProt P51965) | 0 |

Sample 4
Target: ABI1, truncated, D143A, DHFR fusion (Arabidopsis thaliana)
Method: DHFR PCA, deep sequencing
Sample: yeast
Notes: methotrexate growth selection, single substitutions
Added: (+)-ABA 4.8 µM
Relative to: wild-type fitted maximum
Direction: higher = stronger binding
Starting sequence: PYL1, truncated, DHFR fusion (Arabidopsis thaliana); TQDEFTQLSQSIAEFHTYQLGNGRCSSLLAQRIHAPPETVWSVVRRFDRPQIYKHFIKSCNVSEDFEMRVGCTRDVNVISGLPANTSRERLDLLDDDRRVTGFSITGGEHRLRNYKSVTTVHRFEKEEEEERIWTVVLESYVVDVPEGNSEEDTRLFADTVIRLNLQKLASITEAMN; partner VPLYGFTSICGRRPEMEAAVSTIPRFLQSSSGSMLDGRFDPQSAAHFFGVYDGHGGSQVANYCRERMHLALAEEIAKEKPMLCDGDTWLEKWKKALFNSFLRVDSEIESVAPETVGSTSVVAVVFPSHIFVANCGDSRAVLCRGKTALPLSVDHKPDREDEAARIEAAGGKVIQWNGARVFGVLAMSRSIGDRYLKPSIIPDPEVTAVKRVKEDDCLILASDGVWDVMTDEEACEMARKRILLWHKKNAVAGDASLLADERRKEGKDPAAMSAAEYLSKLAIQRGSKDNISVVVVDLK
| Change | relative binding score [%] |
| --- | --- |
| S117H | -7.61 |
| E127A | 77.4 |
| N149M | 19 |
| C60W | 7.74 |
| G21V | 72.8 |
| E139H | 26 |
| R45S | 24.1 |
| R98Y | 8.97 |
| E147A | 71.6 |
| L164Y | 78 |
| S104L | -2.62 |
| S42Q | 78.7 |
| S9Y | 58.9 |

Repeated from above (sample 4):
| Change | relative binding score [%] |
| --- | --- |
| C60W | 7.74 |
| G21V | 72.8 |
| E139H | 26 |
| R45S | 24.1 |
| R98Y | 8.97 |
| E147A | 71.6 |
| L164Y | 78 |
